Measured values collected from several papers.
Each numbered part is a random draw from the data of one study; scales do not carry over between parts.

Block 1 — technique: RNA Bind-n-Seq; molecule type: RNA; matrix: in vitro; tested at: 200 nM; setting: whole 134-nt RNA, ends assumed; together with: 150 mM KCl; baseline: input library; direction: higher = stronger binding
Target: Fragile X messenger ribonucleoprotein 1, C-terminal low-complexity region (Fmr1, Mus musculus, UniProt P35922)
For `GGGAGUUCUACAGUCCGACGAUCUCUCCCAUCAAAGGACGUGCACAGCCUUAUGAUCCCAAUUUUUACGAUGAAACCUAUGAUUAUGGUGGUUUUACAAUGAUGUUUGAUGACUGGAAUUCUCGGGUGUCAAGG`, the log2 enrichment was 1.09.
The log2 enrichment of `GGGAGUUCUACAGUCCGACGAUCGUCCUGUGCUACACAUCGUAUGUACCGAAUCGGGAAAAAGGGGAAAAAGGAAAAAGGGGAAAGUAUUAUGUUACGCCGUUCGGAUCUGCAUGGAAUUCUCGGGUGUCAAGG` is reported as -0.228.
With `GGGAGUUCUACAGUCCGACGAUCCUCAAGUCCUGUGCUACACAUCGUAUGUACCGAAUCGGUUUGGUUUGGAAAGGAAAGUAUUAUGUUACGCCGUUCGGAUCUGCACUUCCAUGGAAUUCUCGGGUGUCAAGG` the log2 enrichment was -0.304.
The log2 enrichment of `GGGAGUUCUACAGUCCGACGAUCCAAGUCCUGUGCUACACAUCGUAUGUACCGAAUCGGGGAGGGGAAAGGGGUGGGGAAAGUAUUAUGUUACGCCGUUCGGAUCUGCACUUCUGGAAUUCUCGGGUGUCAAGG` is reported as 1.15.
With `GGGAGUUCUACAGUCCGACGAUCCCUCAAGUCCUGUGCUACACAUCGUAUGUACCGAAUCGGAAGGGAAGGAAGGAAAGUAUUAUGUUACGCCGUUCGGAUCUGCACUUCCAGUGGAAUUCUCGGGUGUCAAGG` the log2 enrichment was 0.0791.
`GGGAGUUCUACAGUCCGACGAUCCCUCAAGUCCUGUGCUACACAUCGUAUGUACCGAAUCGGGGCGGCGGCGGGGAAAGUAUUAUGUUACGCCGUUCGGAUCUGCACUUCCAGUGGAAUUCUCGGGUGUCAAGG` gave a log2 enrichment of 0.398.
`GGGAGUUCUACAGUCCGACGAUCUCCUGUGCUACACAUCGUAUGUACCGAAUCAAAUUUUUUUAAACCCCCCCAAACCCAAAAAAGUAUUAUGUUACGCCGUUCGGAUCUGCAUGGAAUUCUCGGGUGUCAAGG` has a log2 enrichment of 0.0497.
`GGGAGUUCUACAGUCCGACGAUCAGUCCUGUGCUACACAUCGUAUGUACCGAAUCGGUUUUUUUGGUUUUUGGAAAAAGGAAAGUAUUAUGUUACGCCGUUCGGAUCUGCACUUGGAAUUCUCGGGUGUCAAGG` has a log2 enrichment of -1.09.

Block 2 — technique: universal PBM; molecule type: double-stranded DNA, one strand shown; matrix: in vitro; tested at: 600 nM; direction: higher = stronger binding
Target: Sal-like protein 4, full length isoform A (SALL4, Homo sapiens, UniProt Q9UJQ4, residues 1-1053)
Sequence of UniProt Q9UJQ4 (whole entry, looked up): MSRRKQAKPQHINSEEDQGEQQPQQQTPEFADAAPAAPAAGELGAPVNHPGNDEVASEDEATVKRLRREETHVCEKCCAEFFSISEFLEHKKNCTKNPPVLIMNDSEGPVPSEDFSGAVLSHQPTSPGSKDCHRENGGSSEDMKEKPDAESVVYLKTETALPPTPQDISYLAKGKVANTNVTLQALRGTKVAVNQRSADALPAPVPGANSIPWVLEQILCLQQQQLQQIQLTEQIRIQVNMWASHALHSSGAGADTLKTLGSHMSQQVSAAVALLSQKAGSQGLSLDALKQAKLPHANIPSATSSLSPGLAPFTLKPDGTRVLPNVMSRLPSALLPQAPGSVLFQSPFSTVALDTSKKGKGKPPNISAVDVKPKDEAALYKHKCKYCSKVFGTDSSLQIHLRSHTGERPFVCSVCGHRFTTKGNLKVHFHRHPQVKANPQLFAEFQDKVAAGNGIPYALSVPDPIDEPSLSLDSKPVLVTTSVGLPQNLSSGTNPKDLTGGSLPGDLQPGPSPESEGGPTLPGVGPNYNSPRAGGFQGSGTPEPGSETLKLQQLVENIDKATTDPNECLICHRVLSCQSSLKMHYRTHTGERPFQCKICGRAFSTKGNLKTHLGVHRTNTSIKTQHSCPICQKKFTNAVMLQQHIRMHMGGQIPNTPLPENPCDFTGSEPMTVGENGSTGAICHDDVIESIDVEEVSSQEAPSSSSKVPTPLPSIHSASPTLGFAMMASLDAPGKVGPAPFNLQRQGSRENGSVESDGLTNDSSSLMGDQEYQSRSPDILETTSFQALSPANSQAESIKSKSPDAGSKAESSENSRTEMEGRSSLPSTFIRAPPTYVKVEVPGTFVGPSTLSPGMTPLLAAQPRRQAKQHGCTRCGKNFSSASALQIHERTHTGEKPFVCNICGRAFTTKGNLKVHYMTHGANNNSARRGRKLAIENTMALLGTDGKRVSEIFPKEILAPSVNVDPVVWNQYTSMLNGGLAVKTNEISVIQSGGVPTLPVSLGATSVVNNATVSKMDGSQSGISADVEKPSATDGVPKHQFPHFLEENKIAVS
Setting: 8-mer, flanks averaged, mean of replicates
`AGTATAGG` gave an E-score of 0.137.
For `CCCGTGCA`, the E-score was -0.352.
`ACCGAGAA` has an E-score of 0.0809.
`CCAGGGCA` has an E-score of -0.358.
`CACTGATC` has an E-score of -0.0919.
`ACGTCTCC` gave an E-score of -0.144.
For `CGTTCTCC`, the E-score was -0.0625.

Block 3 — technique: protein binding microarray; molecule type: double-stranded DNA, one strand shown; matrix: in vitro; tested at: not given; baseline: not given; direction: higher = stronger binding
Target: Histone acetyltransferase KAT6A, winged helix 2, GST fusion (KAT6A, Homo sapiens, UniProt Q92794, residues 85-181)
Setting: 8-mer, flanks averaged, mean of 2 arrays, mostly near background
Residues (chain): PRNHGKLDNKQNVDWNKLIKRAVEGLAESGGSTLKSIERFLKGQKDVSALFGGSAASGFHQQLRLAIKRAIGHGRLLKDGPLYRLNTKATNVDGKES
With `CCGTTTCA` the E-score was -0.218.
For `AAAGAGGT`, the E-score was 0.0364.
`CGATGTAA` gave an E-score of -0.188.
For `ACCCTACG`, the E-score was -0.0651.
`CCTGCTAG` has an E-score of -0.082.
With `ACGGACCT` the E-score was 0.0305.
`CTCAGTTA` gave an E-score of 0.126.

Mixed results
The fold induction of `PhoQ, residues 284 288 289 292 302 303 DDMDFR` is reported as 0.849 (PhoP, residues 12 14 15 18 19 HLGGL (Escherichia coli, UniProt P23836); Sort-seq, measured: YFP reporter; E. coli; PhoQ-PhoP variant library, together with: 10 µM Mg2+; baseline: high Mg2+ state, higher = stronger signaling).

For quick reference, copied from above (block 2):
For `CGTTCTCC`, the E-score was -0.0625.
`CACTGATC` has an E-score of -0.0919.
